# Measurements pooled from the literature.
# Compare with care: the assays were run in different laboratories. ± marks the error that the study gave.
# Cell line: SH-SY5Y
SMILES,observed,method,concentration,time,with,reference,viability
O=c1c(Nc2ccc(O)cc2)c(NC2CCN(Cc3ccccc3)CC2)c1=O,,MTT,6.25 µM,24 h,,,102 ± 1.49%
O=c1oc2c(CNCCc3cccc(F)c3)c(O)ccc2c2c1CCC2,,,50 µM,24 h,,,98 ± 0.34%
O=C1CCCC2=C1C(c1c[nH]c3ccccc13)n1c(sc(=Cc3c[nH]c4ccccc34)c1=O)=N2 (stereo not shown),cell growth or viability,MTT,1 µM,,,,97.7%
CC(C)C[C@H](NC(=O)[C@H](CCCCN)NC(=O)[C@H](CCC(N)=O)NC(=O)[C@H](Cc1c[nH]cn1)NC(=O)C[C@@H]1NC(=O)[C@H](CCCCN)NC1=O)C(=O)N[C@H](C(=O)NCCCC[C@@H]1NC(=O)[C@H](CC(=O)N[C@@H](Cc2ccccc2)C(=O)N[C@@H](Cc2ccccc2)C(=O)N[C@@H](C)C(=O)N[C@@H](CCC(=O)O)C(=O)N[C@@H](CC(=O)O)C(=O)NCCCC[C@@H]2NC(=O)[C@H](CC(N)=O)NC2=O)NC1=O)C(C)C,,,10 µM,24 h,,PBS control,~99%
COc1ccc(CNc2c(NC3CCN(Cc4ccccc4)CC3)c(=O)c2=O)cc1,,MTT,12.5 µM,24 h,,,100.6 ± 0.73%
CC(C)C[C@H](NC(=O)[C@H](CCCCN)NC(=O)[C@H](CCC(N)=O)NC(=O)[C@H](Cc1c[nH]cn1)NC(=O)C[C@@H]1NC(=O)[C@H](CCCCN)NC1=O)C(=O)N[C@H](C(=O)N[C@@H](Cc1ccccc1)C(=O)N[C@@H](Cc1ccccc1)C(=O)N[C@@H](C)C(=O)N[C@@H](CCC(=O)O)C(=O)N[C@@H](CC(=O)O)C(N)=O)C(C)C,,,10 µM,24 h,,PBS control,~99%
O=c1c(NCc2ccccc2)c(NC2CCN(Cc3ccccc3)CC2)c1=O,,MTT,6.25 µM,24 h,,,123.6 ± 0.43%
COc1ccc([C@@H]2N=NC(NCCc3c[nH]c4ccc(C)cc34)=NC2=O)cc1,,,50 µM,24 h,,,98.6 ± 0.55%
CC(=O)N[C@H]1[C@H](Oc2ccc(C[C@H](NC(=O)CN)C(=O)N[C@@H](CCC(=O)O)C(=O)N[C@H](C(=O)N[C@@H](Cc3c[nH]cn3)C(=O)N[C@@H](Cc3c[nH]cn3)C(=O)N[C@@H](CCC(N)=O)C(=O)N[C@@H](CCCCN)C(=O)N[C@@H](CC(C)C)C(=O)N[C@H](C(=O)N[C@@H](Cc3ccccc3)C(=O)N[C@@H](Cc3ccccc3)C(=O)N[C@@H](C)C(N)=O)C(C)C)C(C)C)cc2)O[C@H](CO)[C@H](O)[C@@H]1O,,CCK-8,concentration not given,24 h,,,not toxic
FC(F)(F)c1ccc(Nc2c3c(nc4ccccc24)CCCC3)cc1,,,50 µM,1 h pretreatment,H2O2,,47.6 ± 1.27%

# For quick reference, copied from above:
SMILES,observed,method,concentration,time,with,reference,viability
O=c1c(NCc2ccccc2)c(NC2CCN(Cc3ccccc3)CC2)c1=O,,MTT,6.25 µM,24 h,,,123.6 ± 0.43%
